Measurements pooled from the literature.

The GI50 of `CCN(C(=O)c1cc(F)ccc1Oc1nncnc1N1CCC2(C1)CN([C@H](CCCN(C)CCOC)C(C)C)C2)C(C)C` is reported as over 10000 nM (A204; muscle; 72 h).
`COC(=O)c1cc(NC2=NC(=O)C(=Cc3ccc(N(C)C)cc3)S2)ccc1OC(C)=O` has a fold change of 0.533 (MCF7; measured: RNF111 mRNA; 0.81 µM (IC50), 24 h; baseline: DMSO).
`Cc1ncsc1-c1ccc(C(C)NC(=O)C2CC(O)CN2C(=O)C(NC(=O)CCCCCCCCCCN2CCCC(Nc3ncc(Cl)c(Nc4ccccc4S(=O)(=O)C(C)C)n3)C2)C(C)(C)C)cc1` (stereo not shown): “log2 fold change” -2.53 (22Rv1; RNA-seq, measured: TSPEAR-AS1; concentration not given; baseline: DMSO).
With `CCN(CC)CC(=O)Nc1cccc(-n2cc(-c3ccc4ccc(-c5cn(-c6cccc(NC(=O)CN(CC)CC)c6)nn5)cc4c3)nn2)c1` the fold regulation was -1.29 (RCC4; PCR angiogenesis array, measured: IL6; 5 x IC50, 4 h, normoxia; baseline: untreated).
`CO[C@@H]1[C@@H](OC(N)=O)[C@@H](O)[C@H](Oc2ccc3c(O)c(NC(=O)c4ccc(O)c(CC=C(C)C)c4)c(=O)oc3c2C)OC1(C)C` gave a colony survival of 81.2% (HCT-116 parental; 100 µM; baseline: untreated).
`COc1ccc(-c2cc3c(N4CCC[C@H](C(=O)NCc5ccc(OC(F)(F)F)cc5)C4)ncnc3[nH]2)cn1` gave an inhibition of 4.09% (NCI-H2228; cell growth or viability, MTT; 0.008 µg/mL, 72 h).
The IC50 of `CC(C)c1ccc(N(C)c2ccc3c(c2)OCC[C@H]3CNc2cnccc2C(=O)O)cc1` is reported as 179 nM (NCI-H2228; cell viability, CellTiter-Glo; 7 days).
`O=C(NCc1ccc(OC(F)(F)F)cc1)[C@H]1CCCN(c2ncnc3[nH]c(-c4cccs4)cc23)C1` has an inhibition of 74.6% (NCI-H2228; cell growth or viability, MTT; 5 µg/mL, 72 h).
For `Cn1ncc2cc(-c3cncc(Cl)c3N3CCC4(CCNC4=O)CC3)ccc21`, “log2 fold change” read 3.38 (LS174T; gene expression, microarray, measured: RNF183 mRNA; concentration not given, 24 h; baseline: untreated cells).
`Cc1cc(NC2CCN(C)CC2)ccc1-c1cc2c(N3CCC[C@H](C(=O)Nc4ccc(C#N)cc4)C3)ncnc2[nH]1` gave an inhibition of 91.3% (NCI-H2228; cell growth or viability, MTT; 5 µg/mL, 72 h).
The IC50 of `CNS(=O)(=O)Nc1nccc(Cc2c(C)c3ccc(Oc4ncccc4F)cc3oc2=O)c1F` is reported as 1.34 nM (SU-DHL10; cell viability; 7 days).
`CN1CCCNC(=O)c2cccc(c2)C(=O)NCCCN(C)CCCNc2cccc3c2C(=O)c2cccc(c2C3=O)NCCC1`: “log2 fold change” 4.34 (SAS; RNA-Seq, measured: ADAP2 mRNA; 1 µM, 6 h; baseline: untreated cells).
For `Cc1noc(C)c1-c1cc2c(N3CCC[C@H](C(=O)NCc4ccc(OC(F)(F)F)cc4)C3)ncnc2[nH]1`, the inhibition was 79% (NCI-H2228; cell growth or viability, MTT; 5 µg/mL, 72 h).
